Published values pooled from the literature.
Compare with care: the assays were run in different laboratories. Values joined by “and” are separate records of one study, mostly repeats; a detail may differ. ± gives the spread as reported.
RPA1 N-terminal domain: Replication protein A 70 kDa DNA-binding subunit, N-terminal domain (RPA1, Homo sapiens, UniProt P27694)
E3 ubiquitin-protein ligase NEDD4: E3 ubiquitin-protein ligase NEDD4 (Homo sapiens, UniProt P46934)
GLP1R: Glucagon-like peptide 1 receptor (GLP1R, Homo sapiens, UniProt P43220)
GRM4: Metabotropic glutamate receptor 4 (GRM4, Homo sapiens, UniProt Q14833)
MAPK8: Mitogen-activated protein kinase 8 (MAPK8, Homo sapiens, UniProt P45983)

Amino acid sequences for entries named in this document (tags omitted). A change or cut given only in a name is not applied to a line headed by its entry. Residues count along the entry.
UniProt P46934, whole entry, looked up: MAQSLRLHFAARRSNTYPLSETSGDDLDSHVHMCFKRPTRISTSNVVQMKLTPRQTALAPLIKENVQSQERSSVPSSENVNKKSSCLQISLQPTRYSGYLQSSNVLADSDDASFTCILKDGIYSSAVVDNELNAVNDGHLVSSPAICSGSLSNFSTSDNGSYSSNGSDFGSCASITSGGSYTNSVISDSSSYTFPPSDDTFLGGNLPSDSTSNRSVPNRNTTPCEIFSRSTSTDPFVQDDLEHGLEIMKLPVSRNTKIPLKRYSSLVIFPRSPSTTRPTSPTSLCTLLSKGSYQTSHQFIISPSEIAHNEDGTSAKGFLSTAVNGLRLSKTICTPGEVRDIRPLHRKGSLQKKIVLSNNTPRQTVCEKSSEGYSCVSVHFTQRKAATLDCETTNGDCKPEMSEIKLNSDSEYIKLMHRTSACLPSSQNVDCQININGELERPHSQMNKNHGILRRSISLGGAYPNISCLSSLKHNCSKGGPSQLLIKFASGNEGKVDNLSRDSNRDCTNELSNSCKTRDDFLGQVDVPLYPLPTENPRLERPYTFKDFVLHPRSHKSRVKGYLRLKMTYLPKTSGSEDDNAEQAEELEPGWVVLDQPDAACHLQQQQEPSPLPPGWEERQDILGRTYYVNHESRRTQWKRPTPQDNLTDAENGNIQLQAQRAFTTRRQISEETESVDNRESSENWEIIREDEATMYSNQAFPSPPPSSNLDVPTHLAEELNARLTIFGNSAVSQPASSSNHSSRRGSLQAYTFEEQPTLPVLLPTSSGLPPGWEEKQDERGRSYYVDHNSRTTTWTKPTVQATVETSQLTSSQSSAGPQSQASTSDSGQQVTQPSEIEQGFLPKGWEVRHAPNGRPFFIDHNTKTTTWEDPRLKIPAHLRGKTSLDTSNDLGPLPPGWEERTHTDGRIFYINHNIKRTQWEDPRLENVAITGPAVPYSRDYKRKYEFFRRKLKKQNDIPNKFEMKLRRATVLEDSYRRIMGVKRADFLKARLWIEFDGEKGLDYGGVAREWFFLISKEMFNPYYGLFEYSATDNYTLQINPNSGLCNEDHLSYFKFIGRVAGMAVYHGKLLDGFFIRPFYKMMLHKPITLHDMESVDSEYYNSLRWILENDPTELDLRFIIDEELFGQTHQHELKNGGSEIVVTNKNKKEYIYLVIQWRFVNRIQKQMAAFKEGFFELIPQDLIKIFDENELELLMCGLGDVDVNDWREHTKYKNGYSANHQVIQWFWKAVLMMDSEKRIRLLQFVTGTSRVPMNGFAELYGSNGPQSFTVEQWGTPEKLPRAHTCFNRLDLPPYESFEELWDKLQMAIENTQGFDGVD
UniProt Q14833, 33-912 limits assumed: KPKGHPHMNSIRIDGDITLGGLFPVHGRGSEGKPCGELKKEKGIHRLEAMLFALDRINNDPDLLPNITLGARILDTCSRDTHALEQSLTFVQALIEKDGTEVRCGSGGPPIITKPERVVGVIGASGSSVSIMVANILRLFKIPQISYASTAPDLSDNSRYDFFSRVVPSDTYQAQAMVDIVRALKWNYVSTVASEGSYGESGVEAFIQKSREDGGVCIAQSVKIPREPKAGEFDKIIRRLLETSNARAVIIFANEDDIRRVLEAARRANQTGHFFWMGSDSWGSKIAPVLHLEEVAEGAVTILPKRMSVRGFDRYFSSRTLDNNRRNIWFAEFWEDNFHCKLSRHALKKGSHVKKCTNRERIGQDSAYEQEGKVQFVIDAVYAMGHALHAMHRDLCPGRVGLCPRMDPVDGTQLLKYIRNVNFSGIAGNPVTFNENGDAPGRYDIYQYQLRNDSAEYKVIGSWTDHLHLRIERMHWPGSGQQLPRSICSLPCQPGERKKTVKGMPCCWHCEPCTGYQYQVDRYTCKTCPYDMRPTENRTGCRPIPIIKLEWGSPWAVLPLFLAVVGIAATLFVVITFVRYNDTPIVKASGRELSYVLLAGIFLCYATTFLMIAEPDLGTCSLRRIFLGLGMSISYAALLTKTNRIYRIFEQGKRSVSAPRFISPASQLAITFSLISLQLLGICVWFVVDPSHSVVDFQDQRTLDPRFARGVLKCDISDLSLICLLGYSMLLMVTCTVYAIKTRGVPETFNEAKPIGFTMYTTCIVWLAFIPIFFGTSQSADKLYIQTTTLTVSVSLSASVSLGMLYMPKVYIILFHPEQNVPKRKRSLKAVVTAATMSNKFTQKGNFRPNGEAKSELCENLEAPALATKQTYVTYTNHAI
UniProt P05067, 672-713 limits assumed: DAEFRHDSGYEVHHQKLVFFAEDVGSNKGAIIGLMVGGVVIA
UniProt P05067, whole entry, looked up: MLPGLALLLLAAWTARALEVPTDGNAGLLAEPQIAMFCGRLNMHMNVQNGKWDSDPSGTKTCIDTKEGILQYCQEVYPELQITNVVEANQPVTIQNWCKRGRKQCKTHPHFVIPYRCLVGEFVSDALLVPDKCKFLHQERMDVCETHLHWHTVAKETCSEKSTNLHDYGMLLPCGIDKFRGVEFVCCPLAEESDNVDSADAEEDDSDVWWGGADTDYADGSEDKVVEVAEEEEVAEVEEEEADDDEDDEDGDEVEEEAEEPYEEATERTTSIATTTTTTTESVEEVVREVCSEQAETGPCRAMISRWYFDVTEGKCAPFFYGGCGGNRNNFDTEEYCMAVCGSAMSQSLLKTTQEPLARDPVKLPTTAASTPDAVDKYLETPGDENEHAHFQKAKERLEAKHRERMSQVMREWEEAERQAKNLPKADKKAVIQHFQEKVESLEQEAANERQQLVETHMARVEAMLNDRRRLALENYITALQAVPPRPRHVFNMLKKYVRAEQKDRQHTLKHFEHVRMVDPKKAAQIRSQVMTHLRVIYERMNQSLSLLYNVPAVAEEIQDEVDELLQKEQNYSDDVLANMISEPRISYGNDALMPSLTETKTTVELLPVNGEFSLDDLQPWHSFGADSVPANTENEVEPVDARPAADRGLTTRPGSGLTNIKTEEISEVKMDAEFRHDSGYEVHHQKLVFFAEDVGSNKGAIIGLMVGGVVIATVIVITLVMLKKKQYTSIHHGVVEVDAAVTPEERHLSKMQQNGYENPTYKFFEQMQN
UniProt Q5VWZ2, whole entry: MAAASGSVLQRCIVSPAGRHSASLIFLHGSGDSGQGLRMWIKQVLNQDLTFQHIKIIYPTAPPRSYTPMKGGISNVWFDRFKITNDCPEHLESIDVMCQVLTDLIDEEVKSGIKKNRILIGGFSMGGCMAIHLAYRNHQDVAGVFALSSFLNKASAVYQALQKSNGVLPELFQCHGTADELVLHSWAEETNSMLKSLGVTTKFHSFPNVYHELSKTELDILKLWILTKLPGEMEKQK
UniProt P31424, 21-1203 limits assumed: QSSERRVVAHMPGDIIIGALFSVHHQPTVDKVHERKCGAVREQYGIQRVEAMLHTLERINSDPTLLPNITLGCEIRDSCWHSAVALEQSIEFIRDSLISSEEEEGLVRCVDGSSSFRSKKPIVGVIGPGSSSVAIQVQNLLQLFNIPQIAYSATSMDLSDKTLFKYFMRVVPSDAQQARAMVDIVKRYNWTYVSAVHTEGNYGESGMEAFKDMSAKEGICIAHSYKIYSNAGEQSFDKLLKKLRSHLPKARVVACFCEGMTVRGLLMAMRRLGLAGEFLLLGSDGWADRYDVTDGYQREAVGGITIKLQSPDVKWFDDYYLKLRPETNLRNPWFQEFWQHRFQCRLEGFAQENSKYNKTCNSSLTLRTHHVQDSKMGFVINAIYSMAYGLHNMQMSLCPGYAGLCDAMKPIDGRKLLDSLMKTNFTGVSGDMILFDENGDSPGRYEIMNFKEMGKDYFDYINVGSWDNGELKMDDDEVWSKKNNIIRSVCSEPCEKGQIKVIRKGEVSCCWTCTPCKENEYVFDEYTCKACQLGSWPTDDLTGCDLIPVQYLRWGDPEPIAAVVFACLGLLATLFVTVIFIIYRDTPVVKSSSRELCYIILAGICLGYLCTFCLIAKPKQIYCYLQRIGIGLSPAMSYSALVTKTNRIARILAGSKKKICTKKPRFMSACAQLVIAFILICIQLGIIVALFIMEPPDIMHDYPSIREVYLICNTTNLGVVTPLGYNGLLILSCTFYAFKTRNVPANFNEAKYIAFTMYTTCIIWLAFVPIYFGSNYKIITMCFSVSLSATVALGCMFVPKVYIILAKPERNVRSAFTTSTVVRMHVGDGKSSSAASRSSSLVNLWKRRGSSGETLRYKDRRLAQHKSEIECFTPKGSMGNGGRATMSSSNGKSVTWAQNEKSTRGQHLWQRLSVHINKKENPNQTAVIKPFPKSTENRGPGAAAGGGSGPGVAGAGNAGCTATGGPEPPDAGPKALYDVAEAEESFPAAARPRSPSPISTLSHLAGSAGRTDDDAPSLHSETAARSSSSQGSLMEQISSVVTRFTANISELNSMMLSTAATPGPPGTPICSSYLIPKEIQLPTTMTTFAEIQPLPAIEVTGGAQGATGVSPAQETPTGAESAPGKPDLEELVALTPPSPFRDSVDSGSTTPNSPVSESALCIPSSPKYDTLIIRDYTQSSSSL
UniProt P22756, 31-920 isoform 4 limits assumed: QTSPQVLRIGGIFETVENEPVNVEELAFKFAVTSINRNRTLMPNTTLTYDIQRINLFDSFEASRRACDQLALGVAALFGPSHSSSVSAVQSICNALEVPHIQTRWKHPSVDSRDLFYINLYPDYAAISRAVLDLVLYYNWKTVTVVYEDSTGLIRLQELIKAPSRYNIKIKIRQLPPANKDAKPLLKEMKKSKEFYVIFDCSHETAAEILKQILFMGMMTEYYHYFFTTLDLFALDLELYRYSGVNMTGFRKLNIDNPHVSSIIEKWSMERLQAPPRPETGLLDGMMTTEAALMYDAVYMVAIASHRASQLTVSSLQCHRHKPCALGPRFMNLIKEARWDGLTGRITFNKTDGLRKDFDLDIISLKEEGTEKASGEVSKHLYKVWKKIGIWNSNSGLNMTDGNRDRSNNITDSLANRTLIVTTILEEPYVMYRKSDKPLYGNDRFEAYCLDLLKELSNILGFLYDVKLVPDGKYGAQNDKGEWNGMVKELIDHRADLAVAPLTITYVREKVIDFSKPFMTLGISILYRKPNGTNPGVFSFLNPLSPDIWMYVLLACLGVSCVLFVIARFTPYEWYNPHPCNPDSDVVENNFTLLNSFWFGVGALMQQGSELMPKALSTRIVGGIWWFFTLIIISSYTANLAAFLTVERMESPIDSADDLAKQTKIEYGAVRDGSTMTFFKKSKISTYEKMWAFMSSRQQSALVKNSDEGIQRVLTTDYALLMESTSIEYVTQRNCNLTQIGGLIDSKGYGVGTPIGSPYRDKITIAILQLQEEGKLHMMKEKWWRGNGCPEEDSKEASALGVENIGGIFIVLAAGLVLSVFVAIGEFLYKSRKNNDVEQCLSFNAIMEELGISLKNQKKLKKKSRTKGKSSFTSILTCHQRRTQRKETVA
UniProt P21462, whole entry: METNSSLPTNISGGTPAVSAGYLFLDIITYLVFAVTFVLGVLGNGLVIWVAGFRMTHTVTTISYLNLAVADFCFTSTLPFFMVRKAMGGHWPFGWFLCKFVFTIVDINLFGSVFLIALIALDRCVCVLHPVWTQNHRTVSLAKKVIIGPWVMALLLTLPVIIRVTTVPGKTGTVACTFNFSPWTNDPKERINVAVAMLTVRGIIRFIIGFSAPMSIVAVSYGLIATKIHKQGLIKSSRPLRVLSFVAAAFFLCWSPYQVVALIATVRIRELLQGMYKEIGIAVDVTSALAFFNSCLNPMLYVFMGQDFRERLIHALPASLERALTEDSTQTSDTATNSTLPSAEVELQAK
UniProt P11413, whole entry R459L: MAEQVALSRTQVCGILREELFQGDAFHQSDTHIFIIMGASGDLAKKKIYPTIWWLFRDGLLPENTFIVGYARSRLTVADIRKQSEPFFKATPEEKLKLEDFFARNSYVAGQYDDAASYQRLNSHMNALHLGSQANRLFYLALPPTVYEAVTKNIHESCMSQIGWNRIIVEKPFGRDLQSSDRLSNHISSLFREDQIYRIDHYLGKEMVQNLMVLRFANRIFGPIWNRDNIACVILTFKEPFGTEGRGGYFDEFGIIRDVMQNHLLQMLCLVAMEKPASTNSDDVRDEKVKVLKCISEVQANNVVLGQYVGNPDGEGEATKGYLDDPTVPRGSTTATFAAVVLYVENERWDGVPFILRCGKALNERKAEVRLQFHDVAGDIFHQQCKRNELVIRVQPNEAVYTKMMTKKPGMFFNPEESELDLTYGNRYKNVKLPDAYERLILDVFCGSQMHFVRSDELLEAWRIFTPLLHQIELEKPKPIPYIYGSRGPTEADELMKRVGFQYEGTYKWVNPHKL
UniProt P0DMS8, whole entry: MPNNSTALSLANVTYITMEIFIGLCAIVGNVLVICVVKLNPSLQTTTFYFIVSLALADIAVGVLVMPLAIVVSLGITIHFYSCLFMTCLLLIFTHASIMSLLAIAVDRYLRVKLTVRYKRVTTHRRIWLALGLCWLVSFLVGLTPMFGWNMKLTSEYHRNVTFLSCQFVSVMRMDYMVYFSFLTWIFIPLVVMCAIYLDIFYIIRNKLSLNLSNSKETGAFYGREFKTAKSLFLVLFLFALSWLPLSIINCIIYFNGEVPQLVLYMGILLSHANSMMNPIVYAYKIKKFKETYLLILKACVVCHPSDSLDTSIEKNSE

Structure (SMILES)	target or system	assay	test system	conditions	scale	quantity	value
COc1ccc2[nH]cc(/C=C/c3ccc(OS(=O)(=O)c4ccc(C)cc4)cc3)c2c1	Amyloid-beta precursor protein, Aβ1-40 (APP, Homo sapiens, UniProt P05067)	Aβ40 aggregation, thioflavin T fluorescence	–	25 µM	–	inhibition	20%
Nc1nc(SCc2ccc(Cl)cc2)nn1S(=O)(=O)c1ccc(C(F)(F)F)nc1	LYPLAL1 (Homo sapiens, UniProt Q5VWZ2)	activator, gel-based ABPP	purified protein	–	reference: DMSO	FP-rhodamine labelling	1.8 fold
C#CCOc1ccc(C[C@H](N)C(=O)N[C@@H](CC(=O)O)C(=O)N[C@@H](CO)C(=O)N[C@@H](CCC(=O)O)C(=O)N[C@H](C(=O)NCC(=O)N[C@@H](CCC(=O)O)C(=O)N[C@@H](CS)C(=O)O)[C@@H](C)O)cc1	Kelch-like ECH-associated protein 1, Kelch domain (KEAP1, Homo sapiens, UniProt Q14145)	Kelch domain binding, plate-immobilized binding	–	concentration not given	reference: KD over cyclic parent macrocycle	fold decrease in binding affinity	5 fold
Cc1ccc(C(=O)Nc2cc(F)ccc2C(=O)O)cc1S(=O)(=O)Nc1ccc(Cl)c(Cl)c1	RPA1 N-terminal domain	binding, fluorescence polarisation competition	–	added: FITC-ATRIP probe	–	ligand efficiency	0.22
C/C=C/Cn1c(Cc2cc(OC)c(OC)c(OC)c2)nc2c(N)ncnc21	Heat shock protein HSP 90-beta, N-terminal domain (HSP90AB1, Homo sapiens, UniProt P08238)	isothermal titration calorimetry	–	298 K	–	ΔG	-7.34 ± 0.11 kcal/mol
COc1ccccc1Nc1c(C(=O)O)ccnc1C(=O)O	KDM4E (Homo sapiens, UniProt B2RXH2)	inhibitor, FDH-coupled spectrophotometry, refers to: formaldehyde	–	200 µM	–	remaining activity	2%
N#Cc1cnc(Nc2nc3ccccc3o2)nc1-c1ccc2ccccc2c1	Grm5 (Rattus norvegicus, UniProt P31424)	calcium mobilization, negative allosteric modulator	–	added: glutamate EC80	reference: glutamate maximum	maximal response	47 ± 11%
O=C(OC(C(F)(F)F)C(F)(F)F)N1Cc2ccc(OCC(F)F)cc2C1	FAAH (Homo sapiens, UniProt O00519)	enzyme activity, inhibitor, fluorescence AAMCA substrate	–	1 µM	–	activity	inactive
CCOC(=O)/C=C/CNCCCN1c2ccccc2CCc2ccc([N+](=O)[O-])cc21	E3 ubiquitin-protein ligase NEDD4	inhibitor, Ub-TR-FRET	–	1.235 µM, 1 h preincubation, HECT domain, added: ATP 2 mM	higher = more ubiquitination	ubiquitination TR-FRET signal AUC	132000 a.u. and 128000 a.u. and 131000 a.u.
O=C(O)c1cc(C(=O)N[C@@H](Cc2ccc(O)cc2)C(=O)O)cc([C@H]2CCN[C@@H]2C(=O)O)c1	Glutamate receptor ionotropic, kainate 1 (Rattus norvegicus, UniProt P22756)	radioligand binding	Sf9 membranes	10 µM, homomeric receptor, added: [3H]SYM2081	–	specific binding	62 ± 1%
Cc1ccc(NC(=O)c2ccc(CN3CCC(N(C)C)C3)c(C(F)(F)F)c2)cc1N1Cc2cnc(Nc3cnn(C)c3)nc2N(C)C1=O (stereo not drawn)	FGFR4/Transcription factor ETV6 (Homo sapiens, UniProt P22455+P41212)	cell proliferation	Ba/F3 TEL-FGFR4	72 h	–	GI50	0.019 µM
CCOC(=O)/C=C/CNCCCCN1c2ccccc2CCc2ccc(Cl)cc21	E3 ubiquitin-protein ligase NEDD4	inhibitor, Ub-TR-FRET	–	0.4115 µM, 1 h preincubation, HECT domain, added: ATP 2 mM	higher = more ubiquitination	ubiquitination TR-FRET signal AUC	102000 a.u. and 105000 a.u. and 63000 a.u. and 67300 a.u. and 106000 a.u. and 61200 a.u.
Cc1cccc(-c2noc(-c3cn(CC(=O)NCc4ccc5c(c4)OCO5)c4nc(C)ccc4c3=O)n2)c1	Catenin beta-1, residues 141-305 (CTNNB1, Homo sapiens, UniProt P35222)	isothermal titration calorimetry	–	concentration not given, 25 °C	–	entropy change	18.9 cal/(mol·K)
Cc1[nH]c2cc(Cl)cc(Cl)c2c1CCn1cc(CCCN)nn1	GLP1R	cAMP accumulation, positive allosteric modulator, HTRF	–	0.6 µM, crude reaction product, added: GLP-1(9-36) at EC20	reference: BETP	Emax	90.3%
COc1cc([C@@H]2c3cc4c(cc3[C@@H](OC3CCCCC3)[C@H]3COC(=O)[C@H]23)OCO4)cc(OC)c1OC	Leishmania infantum	–	promastigote, iRFP	–	–	EC50	66.4 ± 6.8 µM
COc1ccc(OC)c(C2C(C(=O)c3ccccc3)=C(O)C(=O)N2CCCN2CCOCC2)c1 (stereo not drawn)	FPR1 (Homo sapiens, UniProt P21462)	fMLF-induced calcium mobilization, antagonist	HL-60 expressing FPR1	concentration not given	–	antagonist activity	active
C[C@H](Nc1nc(N[C@H](C)C2CC2)nc(-c2cccc(C(F)(F)F)n2)n1)C1CC1	Isocitrate dehydrogenase [NADP] cytoplasmic, homodimer (IDH1, Homo sapiens, UniProt O75874, R132H)	enzyme activity, inhibitor, diaphorase/resazurin coupled	–	–	–	maximal inhibition	89%

Structure (SMILES)	target or system	assay	test system	conditions	scale	quantity	value
NC(=O)c1cn(-c2ccc(F)cc2)c2ccc(COc3ccc(Cl)nc3)cc2c1=O	Grm2 (Rattus norvegicus, UniProt P31421)	calcium mobilization, negative allosteric modulator	–	30 µM, added: glutamate 100 µM	reference: glutamate maximum	response	1.7 ± 0.12%
Cc1ccc(NC(=O)c2ccc(C)c(S(=O)(=O)Nc3cccc(Cl)c3)c2)c(C(=O)O)c1	RPA1 N-terminal domain	binding, fluorescence polarisation competition	–	added: FITC-ATRIP probe	–	ligand efficiency	0.2
COc1ccc(NC(=O)CN2CCCN(S(=O)(=O)c3cnc(NC(C)=O)s3)CC2)c(OC)c1	GRM4	calcium mobilization, positive allosteric modulator	CHO cells with Gqi5	added: glutamate	reference: PHCCC maximal response	maximal response	46.4 ± 5.5%
COc1cc([C@@H]2c3cc4c(cc3[C@H](CC(C)C)[C@H]3COC(=O)[C@H]23)OCO4)cc(OC)c1OC	Leishmania infantum	–	promastigote, iRFP	–	–	EC50	13.8 ± 0.2 µM
c1ccc2c(CCNCCSSCCNCCc3c[nH]c4ccccc34)c[nH]c2c1	G6PD (Homo sapiens, UniProt P11413, R459L)	activator	–	concentration not given, Canton mutant	–	activity increase	60%
COC(=O)[C@@]1(C)C=C(C(=O)Nc2cccc(C(=O)NC34CC(Nc5nccc(-c6cccnc6)n5)(C3)C4)c2)C(=O)CC1	MAPK8	kinase activity, inhibitor	–	0.1829 µM, unit not given, added: 10 mM GSH	reference: DMSO	remaining activity	0.166
O[C@@H]1[C@H](O)[C@@H]2C[C@@H]2[C@H]1n1cnc2c(NCc3cccc([125I])c3)nc(Cl)nc21	ADORA3 (Homo sapiens, UniProt P0DMS8)	binding	HEK293 cell membranes	room temperature	–	association half-life	33.6 ± 4.8 s
O=C(O)CCNC(=O)c1ccc(NCc2cn(CC3(c4ccc(Cl)cc4)CC3)nn2)cc1	GLP1R	cAMP accumulation, positive allosteric modulator, HTRF	–	0.6 µM, added: GLP-1(9-36) at EC20	reference: BETP	Emax	80%
Cc1ncsc1-c1ccc([C@H](C)NC(=O)[C@@H]2C[C@@H](O)CN2C(=O)[C@@H](NC(=O)CCCCCCC(=O)N2CCN(C[C@]3(C)CCC(c4ccc(Cl)cc4)=C(CN4CCN(c5ccc(C(=O)NS(=O)(=O)c6ccc(N[C@H](CCN7CCOCC7)CSc7ccccc7)c(S(=O)(=O)C(F)(F)F)c6)cc5)CC4)C3)CC2)C(C)(C)C)cc1	BCL2L2 (Homo sapiens, UniProt Q92843)	western blot	WI-38 senescent and non-senescent	up to 100 nM	–	protein level	no effect
O=C(Nc1ccccc1F)C12CC1/C(=N\O)c1ccccc1O2 (stereo not drawn)	GRM4	positive allosteric modulator, calcium mobilization	CHO expressing Gqi5	concentration not given, added: glutamate EC20	reference: (±)-PHCCC	response	72 ± 2.5%
COc1ccc(NC(=O)CN2CCCN(S(=O)(=O)Cc3ccccc3)CC2)c(OC)c1	GRM4	calcium mobilization, positive allosteric modulator	CHO cells with Gqi5	added: glutamate	reference: PHCCC maximal response	maximal response	46.5%
CCOC(=O)/C=C/CNCCCN1c2ccccc2CCc2ccccc21	E3 ubiquitin-protein ligase NEDD4	inhibitor, Ub-TR-FRET	–	3.704 µM, 1 h preincubation, HECT domain, added: ATP 2 mM	higher = more ubiquitination	ubiquitination TR-FRET signal AUC	109000 a.u. and 108000 a.u. and 104000 a.u.
Cc1ccc(F)cc1S(=O)(=O)n1nc(SCc2ccccc2)nc1N	Lysophospholipase-like protein 1 (Mus musculus, UniProt Q3UFF7)	activator, gel-based ABPP FP-rhodamine	–	–	reference: DMSO	probe labelling	1 fold
Cc1cc(NC(=O)c2cccc(NC(=O)C3=CC(C)(C)CC3=O)c2)ccc1Nc1nccc(-c2cccnc2)n1	MAPK8	kinase activity, inhibitor	–	4.938 µM, unit not given, added: 10 mM GSH	reference: DMSO	remaining activity	0.15
COCOc1ccc(/C=C/C(=O)C(CCC(=O)OC)C(=O)/C=C/c2ccc(OCOC)c(OC(F)(F)F)c2)cc1OC(F)(F)F	APP (Homo sapiens, UniProt P05067)	SDS-PAGE western blot, refers to: Aβ1-42 species 75-200 kDa	–	30 µM, 24 h, 37 °C, added: Aβ 10 µM	reference: DMSO control	Aβ band density	342 ± 73%
O=C1CCC(N2Cc3cc(-c4nc5ccccn5c4Nc4ccccc4)ccc3C2=O)C(=O)N1 (stereo not drawn)	WEE1/CRBN (Homo sapiens, UniProt P30291+Q96SW2)	degrader, HiBiT	Jurkat	5 h	–	Dmax	78%

Repeated from above:
Structure (SMILES)	target or system	assay	test system	conditions	scale	quantity	value
C[C@H](Nc1nc(N[C@H](C)C2CC2)nc(-c2cccc(C(F)(F)F)n2)n1)C1CC1	Isocitrate dehydrogenase [NADP] cytoplasmic, homodimer (IDH1, Homo sapiens, UniProt O75874, R132H)	enzyme activity, inhibitor, diaphorase/resazurin coupled	–	–	–	maximal inhibition	89%
NC(=O)c1cn(-c2ccc(F)cc2)c2ccc(COc3ccc(Cl)nc3)cc2c1=O	Grm2 (Rattus norvegicus, UniProt P31421)	calcium mobilization, negative allosteric modulator	–	30 µM, added: glutamate 100 µM	reference: glutamate maximum	response	1.7 ± 0.12%
Cc1ccc(NC(=O)c2ccc(C)c(S(=O)(=O)Nc3cccc(Cl)c3)c2)c(C(=O)O)c1	RPA1 N-terminal domain	binding, fluorescence polarisation competition	–	added: FITC-ATRIP probe	–	ligand efficiency	0.2
COc1ccc(NC(=O)CN2CCCN(S(=O)(=O)c3cnc(NC(C)=O)s3)CC2)c(OC)c1	GRM4	calcium mobilization, positive allosteric modulator	CHO cells with Gqi5	added: glutamate	reference: PHCCC maximal response	maximal response	46.4 ± 5.5%
